Published values of several laboratories.
Lines come from different studies, so protocols differ. Values joined by “and” are separate records of one study, mostly repeats; a detail may differ. Numbers after ± are the reported error.

COc1ccc2nc3cc(Cl)ccc3c(Nc3cc(CN4CCCC4)c(O)c(CN4CCCC4)c3)c2n1  white blood cell count (mouse, blood; intraperitoneal, 57 mg/kg): 7.66 10⁹/L
CCN(CCO)CCCC(C)Nc1ccnc2cc(Cl)ccc12 (stereo not drawn)  patients with adverse event (measured: Hyperglycemia grade 1; newly diagnosed glioblastoma patients; oral, 400 mg/dose, with radiotherapy and temozolomide): 14%
C[C@]1(CO)Cc2ncn(-c3ccc(C#N)c(Cl)c3)c2C(=O)O1  apparent terminal t1/2 (human, European, plasma; single rising dose, range of means): 4.51 to 6.3 h
CCS(=O)(=O)Nc1ccc(Oc2ccc(F)cc2F)c(-c2cn(C)c(=O)c3[nH]ccc23)c1  treatment-emergent adverse events (serious septic shock; human, relapsed/refractory AML; oral, dose not given): 0%
C[C@@H](NC(=O)N1C(=O)[C@H](Cc2ccnc(N)c2)[C@H]1C(=O)O)C1CCCCC1  abnormal liver function leading to discontinuation (healthy adult Chinese volunteers; continuous intravenous infusion, 1.5 mg/kg/h, 5-day infusion, CTCAE 5.0 grading): 0%
O=S(=O)(Nc1ccccc1)c1ccc(NC(=S)Nc2ccccc2)cc1  mean platelet volume (mouse, male, blood; oral, 20 mg/kg daily, 14 days): 4.48 fL
COc1cc2c(Oc3ccc4[nH]c(C)cc4c3F)ccnc2cc1OCC1(N)CC1  Hypertension incidence (paediatric recurrent refractory sarcoma; 10 mg): 25%
C[C@]1(O)C[C@@](N)(c2ccc(-c3nc4n(c3-c3ccccc3)COc3ccncc3-4)cc2)C1  patients with AST increased TEAE (human, advanced or metastatic solid tumours; dose not given, intermittent dose escalation total): 0%
CCc1ccc(CC/C=C/c2ccc3c(c2)C(=O)CC3)cc1  platelet distribution width (Sprague-Dawley rat, male, blood; oral, 30 mg/kg/day, 14 days): 50.8%
CN1CCN(S(=O)(=O)c2cc([N+](=O)[O-])ccc2N(CCOS(C)(=O)=O)CCOS(C)(=O)=O)CC1  elimination rate constant (naive female NSG mice, plasma; intraperitoneal, 25 mg/kg): 0.000547 s⁻¹
N[C@@H]1c2ccccc2OC12CCN(c1cnc3c(N4CCCc5ncccc54)n[nH]c3n1)CC2  incidence grade ≥3 serious TEAE (patients advanced metastatic solid tumours; oral, dose not given, dose escalation total): 27.8%
Cn1ncc(-c2nc(N[C@H]3CC[C@H](N)CC3)ncc2Cl)c1CC1CC1  AUC (HPLC-MS/MS; patients, plasma; oral, 11 mg, day 1): 828 ng·h/mL
C[C@H]1COCCN1c1nc(NCc2cccnc2C(F)(F)F)c2cccnc2n1  PR change (conscious rat; intravenous, 10 mg/kg; baseline: control): 9.3%
C[C@@H]1NC(=O)[C@H](CCCCNC(=O)CO/N=C/C(=O)NCCCC[C@@H]2NC(=O)[C@@H](Cc3ccccc3)NC(=O)[C@H](CC(=O)O)NC(=O)CNC(=O)[C@H](CCCNC(=N)N)NC2=O)NC(=O)CNC(=O)[C@@H]2CCCN2C(=O)[C@H](CCCCNC(=O)CO/N=C/C(=O)NCCCC[C@@H]2NC(=O)[C@@H](Cc3ccccc3)NC(=O)[C@H](CC(=O)O)NC(=O)CNC(=O)[C@H](CCCNC(=N)N)NC2=O)NC(=O)[C@H](CCCCNC(=O)[C@H](CCCCN)NC(=O)[C@H](Cc2ccccc2)NC(=O)CNC(=O)CN2CCCNCCNCCCNCC2)NC(=O)[C@H](CCCCNC(=O)CO/N=C/C(=O)NCCCC[C@@H]2NC(=O)[C@@H](Cc3ccccc3)NC(=O)[C@H](CC(=O)O)NC(=O)CNC(=O)[C@H](CCCNC(=N)N)NC2=O)NC(=O)CNC(=O)[C@@H]2CCCN2C(=O)[C@H](CCCCNC(=O)CO/N=C/C(=O)NCCCC[C@@H]2NC(=O)[C@@H](Cc3ccccc3)NC(=O)[C@H](CC(=O)O)NC(=O)CNC(=O)[C@H](CCCNC(=N)N)NC2=O)NC1=O [copper-64 labelled]  tissue uptake (biodistribution after PET; mouse, U-87 MG tumour xenograft, kidney; intravenous, 24 h): 12 ± 1.17 %ID/g
C=CCNc1c(O)cc2c(O)c1C[C@@H](C)C[C@H](OC)[C@H](O)[C@@H](C)/C=C(\C)[C@H](OC(N)=O)[C@@H](OC)/C=C\C=C(/C)C(=O)N2  patients with sinus bradycardia (unresectable or metastatic STS, GIST, other; intravenous, 300 mg/m^2): 33%
COc1ncccc1-c1cnn2ccc(N3CCN(C(=O)OC(C)C)CC3)nc12  free drug concentration (rat, thermal hyperalgesia model, plasma; oral, 30 mg/kg, 180 min): 62 nM
CCN1CCN(Cc2ccc(Nc3ncc(F)c(-c4cc(F)c5nc6n(c5c4)[C@H](C)CCC6)n3)nc2)CC1  Hypophosphatemia incidence, grade ≥3 (advanced solid tumour patients; dose not given, Phase Ia monotherapy): 0%
O=C1Nc2cc3[nH]nc(-c4ccncc4)c3cc2CN1Cc1ccccc1  patients with back pain (CTCAE v4.03; advanced solid tumour patients; intravenous, 0.45 mg/kg, schedules 1/2): 100%
O=C(Nc1ccccc1)C1CCN(C(=O)Oc2cccnc2)CC1  change in Suspicious score (psychotropic effects VAS; healthy women; 60 mg; baseline: pre-dose baseline, direction not given): 0.1
CCN1[C@@H](C(=O)NC23CCC(C(=O)O)(CC2)CC3)[C@H](c2cccc(Cl)c2F)[C@]2(C(=O)Nc3cc(Cl)ccc32)C12CCCCC2  grade ≥3 Neutropenia incidence (patients with advanced solid tumours; oral, 100 mg): 9.1%
CN1CC[C@@H](c2c(O)cc(O)c3c(=O)cc(-c4ccc(C(F)(F)F)cc4Cl)oc23)[C@@H]1CO  patients with adverse event (measured: Neutropenia; AML; oral, 100 mg, intermittent dosing): 33.3%
CC(C)N(CCc1c[nH]c2cccc(OC(=O)CCCC(=O)O)c12)C(C)C.Cl  AUC(0-t) (male beagle dog, plasma; subcutaneous, 1 mg/kg): 621 ng·h/mL
CO[C@H]1C[C@@H]2CC[C@@H](C)[C@@](O)(O2)C(=O)C(=O)N2CCCC[C@H]2C(=O)O[C@H]([C@H](C)C[C@@H]2CC[C@@H](OC(=O)NCCOCCOCCOCCOCCOCCOCCOCCOCCC(=O)N3CCc4cc(Cn5nc(-c6ccc7oc(N)nc7c6)c6c(N)ncnc65)ccc4C3)[C@H](OC)C2)C[C@@H](O)[C@H](C)/C=C(\C)[C@@H](O)[C@@H](OC)C(=O)[C@H](C)C[C@H](C)/C=C/C=C/C=C/1C  incidence of TEAE (advanced solid tumour patients; intravenous, dose not given, any grade, all doses): 100%
CC(C)CC(=O)OC[C@H]1O[C@@](C#N)(c2ccc3c(N)ncnn23)[C@H](O)[C@@H]1O  remaining compound (human hepatocytes; 15 min): 0.158 ± 0.0683%
COc1cccc(Oc2ccccc2NC(=O)CNC(=O)c2cccc3ccccc23)c1  hematocrit (esterase-deficient SCID mice, male, blood; oral, 15 mg/kg/day, 14 days, toxicity study): 41.5% and 44.9% and 41%
CC(=O)c1c(C)c2cnc(Nc3ccc(C4CCN(CCS(C)(=O)=O)CC4)cn3)nc2n(C2CCCC2)c1=O  AUC(0-inf) (human, dose-escalation trial, plasma; oral, 150 mg twice daily, day 1, single dose): 3800 ng·h/mL
Cc1ccc(F)c2cc(C(=O)N[C@@H]3CCC[C@H](N4CC[C@H](N(C)S(C)(=O)=O)C4)C3)[nH]c12  plasma concentration (CD1 mouse, plasma; oral, 100 mg/kg, 1 h): 3260 ng/mL
COc1ccc(-c2c(-c3ccc(C#N)c(F)c3)nc(N3CCC(N)CC3)n(C)c2=O)cc1F  treatment-related adverse event incidence (measured: Constipation; neuroendocrine neoplasm patients; oral, 60 mg, grade 3 to 4, dose expansion): 0%
CC[C@H](C)[C@H](NC(=O)[C@H](Cc1ccccc1)NC(=O)[C@H](CCC(=O)O)NC(=O)[C@H](CCCNC(=N)N)NC(=O)[C@H](C)NC(=O)[C@H](C)NC(=O)[C@H](CCC(N)=O)NC(=O)[C@H](CCC(=O)O)NC(=O)[C@H](CCC(=O)O)NC(=O)[C@H](CC(C)C)NC(=O)[C@H](Cc1ccc(O)cc1)NC(=O)[C@H](CO)NC(=O)[C@H](CO)NC(=O)[C@@H](NC(=O)[C@H](CC(=O)O)NC(=O)[C@H](CO)NC(=O)[C@@H](NC(=O)[C@H](Cc1ccccc1)NC(=O)[C@@H](NC(=O)CNC(=O)[C@H](CCC(=O)O)NC(=O)[C@H](C)NC(=O)CCc1cnc[nH]1)[C@@H](C)O)[C@@H](C)O)C(C)C)C(=O)N[C@@H](C)C(=O)N[C@@H](Cc1c[nH]c2ccccc12)C(=O)N[C@@H](CC(C)C)C(=O)N[C@H](C(=O)N[C@@H](CCCNC(=N)N)C(=O)NCC(=O)N[C@@H](CCCNC(=N)N)C(=O)N[C@@H](CCCCNC(=O)COCCOCCNC(=O)COCCOCCNC(=O)CC[C@H](NC(=O)CCCCCCCCCCCCCCCCC(=O)O)C(=O)O)C(=O)NCC(=O)NCC(=O)N[C@@H](CO)C(=O)N[C@@H](CCSC)C(=O)N[C@H](C(=O)N[C@@H](CCCCNc1c(NCCCCCN(O)C(=O)CCC(=O)NCCCCCN(O)C(=O)CCC(=O)NCCCCCN(O)C(C)=O)c(=O)c1=O)C(=O)O)C(C)C)C(C)C [zirconium-89 labelled]  tissue uptake (ex vivo gamma counting; Sprague-Dawley rat, male, knee; intravenous, 1 nmol, 72 h): 0.222 %ID/g
C=CC(=O)Nc1cc(Nc2nccc(Nc3cc(Cl)c(F)cc3C(C)(C)O)n2)c(OC)cc1N1CC[C@@H](N(C)C)C1  patients with adverse event Vomiting (human; oral, dose not given, phase I clinical): 31.4%
CC(C)C[C@H](NC(=O)[C@H](CCCCN)NC(=O)OCC1c2ccccc2-c2ccccc21)C(=O)N[C@H](C(=O)N[C@@H](Cc1ccccc1)C(=O)N[C@@H](Cc1ccccc1)C(=O)N[C@@H](CCCCN)C(=O)NCC(=O)N[C@@H](Cc1ccccc1)C(=O)N[C@@H](C)C(=O)N[C@@H](Cc1c[nH]c2ccccc12)C(=O)N[C@@H](CC(N)=O)C(=O)N[C@H](C(=O)N[C@H]1CSSC[C@@H](C(=O)N[C@@H](Cc2c[nH]cn2)C(=O)N[C@@H](CCCNC(=N)N)C(=O)N[C@@H](CCCNC(=N)N)C(=O)N[C@@H](C)C(=O)N[C@@H](CC(N)=O)C(N)=O)NC(=O)[C@H](C(C)C)NC(=O)[C@H](CCCNC(=N)N)NC(=O)[C@H](C(C)C)NC(=O)CNC(=O)[C@H](CC(N)=O)NC(=O)[C@H](CCCNC(=N)N)NC(=O)[C@H](Cc2ccc(O)cc2)NC(=O)[C@H](C(C)C)NC1=O)C(C)C)C(C)C  tremor score (ICR mouse; ip, 10 mg/kg; direction not given): 0
CN[C@@H](C)C(=O)N[C@H]1CN(S(=O)(=O)c2cccc(S(=O)(=O)N3CC[C@H]4CC[C@@H](C(=O)NC(c5ccccc5)c5ccccc5)N4C(=O)[C@@H](NC(=O)[C@H](C)NC)C3)c2)CC[C@H]2CC[C@@H](C(=O)NC(c3ccccc3)c3ccccc3)N2C1=O  treatment-related AST elevation incidence (patients with advanced solid tumours; 12 mg, phase I monotherapy): 0%
COc1ccnc(C(=O)N[C@H]2COC(=O)[C@H](Cc3ccccc3)[C@@H](OC(=O)C(C)C)[C@H](C)OC2=O)c1OCOC(=O)C(C)C  NOAEL (developmental toxicity; rat; highest dose tested): 1040 mg/kg/day
O[C@H]1CCCN[C@@H]1CCCn1cnc2c(Cl)c(Cl)ccc21  terminal half-life (healthy humans, plasma; oral, 150 mg, together with: pirfenidone 600 mg): 4.83 h
NCCCC[C@@H]1NC(=O)[C@@H](Cc2c[nH]c3ccccc23)NC(=O)[C@H](c2ccccc2)NC(=O)[C@@H]2C[C@@H](OC(=O)NCCN)CN2C(=O)[C@H](Cc2ccccc2)NC(=O)[C@H](Cc2ccc(OCc3ccccc3)cc2)NC1=O  subjects with adverse event Fatigue (healthy human volunteers; 1950 µg twice daily): 6%
O=C(c1ccc(F)c(F)c1Nc1ccc(I)cc1F)N1CC(O)([C@@H]2CCCCN2)C1  serious adverse events (patients aged sample A to sample B years; oral, dose not given): 29%
